Assay results collected from several papers.
Each line is one published result; not all experiments were run side by side. Numbers after ± are the reported error. Values after ≈ are worked out from the molar mass of the structure shown.

Structure (SMILES) = O=C1COCCO1; test system = acidic solution; endpoint = lactone fraction; result = 1.4%
Structure (SMILES) = CS(=O)(=O)Nc1ccc(C(=O)O[C@@H](Cc2c(Cl)c[n+]([O-])cc2Cl)c2ccc(OC(F)F)c(OCC3CC3)c2)cc1OCC1CC1; test system = human, plasma; setting = inhaled, 300 µg once daily, day 7, single-dose dry powder inhaler; endpoint = Cmax; result = 0.41 ng/mL
Structure (SMILES) = C[C@H](N)C(=O)N[C@H](Cc1c[nH]c2ccccc12)C(=O)N[C@@H](Cc1ccccc1)C(=O)N[C@H](C(=O)N1CCC(C(N)=O)CC1)[C@@H](c1ccccc1)c1c[nH]c2ccccc12; test = RP-HPLC Jupiter Proteo; setting = acetonitrile/water TFA gradient; endpoint = HPLC retention; result = 53.2 %B
Structure (SMILES) = CC[C@H](C)[C@@H]1NC(=O)[C@H](Cc2ccc(O)cc2)NC(=O)[C@@H](N)CSSC[C@@H](C(=O)N2CCC[C@H]2C(=O)N[C@@H](CC(C)C)C(=O)NCC(N)=O)NC(=O)[C@H](CC(N)=O)NC(=O)[C@H](CCC(N)=O)NC1=O; test = microdialysis, radioimmunoassay; test system = C57BL/6J male mice, wild type, hippocampus extracellular fluid; setting = intranasal, 12 µg, time to half of Cmax; endpoint = half-life; result = 0.243 ± 0.07 h
Structure (SMILES) = O=C(c1cc(Cl)c(O)c(Cl)c1)N1CS(=O)(=O)c2ccccc21; test system = healthy Chinese adults, fasted, plasma; setting = oral, 10 mg single dose; endpoint = AUC(0-24h); result = 10600 ± 1460 ng·h/mL
Structure (SMILES) = COc1ccc2cc3[n+](cc2c1OC)CCc1cc2c(cc1-3)OCO2; test system = rat plasma QC sample; setting = 0.5 ng/mL nominal, 24 h, low QC level autosampler stability; endpoint = measured concentration; result = 0.45 ± 0.05 ng/mL
Structure (SMILES) = CNC(=O)c1ccc(-c2cnc3ncc(Cc4ccc5ncccc5c4)n3n2)cc1F; test system = human moderate hepatic impairment; setting = oral, 200 mg single dose, adjusted geometric mean; endpoint = AUC(0-inf); result = 5700 ng·h/mL
Structure (SMILES) = Oc1ncnc2[nH]ncc12; test system = human, male, urine; setting = oral, 10 mg, added: allopurinol 300 mg; how to read = reference: combination over alone; endpoint = Ae(0-24) ratio; result = 89.5%
Structure (SMILES) = [2H]C([2H])([2H])Oc1cc2c(cc1OC([2H])([2H])[2H])C1CC(=O)C(CC(C)C)CN1CC2 (stereo not shown); test = item: deuterated total (α+β)-HTBZ; test system = healthy human volunteers, plasma; setting = oral, 24 mg single dose, standard meal; endpoint = dose-normalized AUC(0-t); result = 22.3 ng·h/mL
Structure (SMILES) = Nc1ccn([C@@H]2O[C@H](CO)[C@@H](O)C2(F)F)c(=O)n1; test system = extracted rat plasma; setting = 12.00 ng/mL, 8 h, 10 °C, autosampler stability, low QC; endpoint = measured concentration; result = 10.9 ± 1.3 ng/mL
Structure (SMILES) = CC(/C=C/C=C(\C)C(=O)O)=C\C=C\C=C(C)\C=C\C=C(/C)C(=O)O; test = shake-flask; test system = simulated gastric fluid; setting = 1 h, pH 1.2, 37 °C; endpoint = solubility; result = < 0.5 µg/mL
Structure (SMILES) = O=C(O)/C=C/c1ccccc1; test system = rat plasma QC sample; setting = 1024 ng/mL nominal, 24 h, high QC level autosampler stability; endpoint = measured concentration; result = 1010 ± 62.9 ng/mL
Structure (SMILES) = Cc1nc2cccc(OCC(C)(C)C(=O)NC(C)C)c2c(N)c1C(=O)O; test system = male Sprague-Dawley rat, plasma; setting = oral, 10 mg/kg, single dose; endpoint = AUC(0-t); result = 17.9 ng·h/mL
Structure (SMILES) = CC(C)C[C@H](NC(=O)[C@H](CC(C)C)NC(=O)[C@@H](Cc1c[nH]c2ccccc12)NC(=O)[C@H](Cc1ccccc1)NC(=O)[C@@H](NC(=O)[C@@H](N)CCCCN)[C@@H](c1ccccc1)c1c[nH]c2ccccc12)C(N)=O; test = RP-HPLC Jupiter Proteo; setting = acetonitrile/water TFA gradient; endpoint = HPLC retention; result = 54.7 %B
Structure (SMILES) = CCCC[C@H](NC(C)=O)C(=O)N[C@H]1CCC(=O)NC[C@@H](C(=O)N[C@@H](Cc2c[nH]c3ccccc23)C(N)=O)NC(=O)[C@H](CCCNC(=N)N)NC(=O)[C@@H](Cc2ccccc2)NC(=O)[C@H](Cc2c[nH]cn2)NC1=O; test system = female rat, plasma; setting = subcutaneous, 1 mg/kg/day, multiple doses, once daily; endpoint = AUC(0-t); result = 818 ng·h/mL
Structure (SMILES) = COc1ccc(-c2oc3c(OC)c(OC)c(OC)c(OC)c3c(=O)c2OC)cc1OC; test system = C57BL/6 mouse, male, colon; setting = oral, 1% w/w in diet, 6 weeks, orange peel extract diet; how to read = reference: content in orange peel; endpoint = tissue to peel content ratio; result = 0.258%
Structure (SMILES) = CCCC[C@@H]1NC(=O)[C@@H](NC(=O)[C@H](CCC(=O)O)NC(=O)CNC(=O)CN2CCN(CC(=O)O)CCN(CC(=O)O)CCN(CC(=O)O)CC2)CCCCNC(=O)C[C@@H](C(N)=O)NC(=O)[C@H](C(C)C)NC(=O)[C@@H]2CCCN2C(=O)[C@H](CCCNC(=N)N)NC(=O)CNC(=O)[C@H](Cc2c[nH]c3ccccc23)NC(=O)[C@H](CCCNC(=N)N)NC(=O)[C@@H](Cc2ccccc2)NC(=O)[C@H](Cc2c[nH]cn2)NC(=O)[C@H](CCC(=O)O)NC1=O [indium-111 labelled]; test system = normal C57 mice, bone; setting = intravenous, 0.037 MBq, 2 h; endpoint = tissue uptake; result = 0.03 ± 0.01 %ID/g
Structure (SMILES) = CN(C)C(=N)N=C(N)N; test system = Sprague-Dawley rat, male, liver; setting = oral, 100 mg/kg, 24 h, single low dose; how to read = direction not given; endpoint = hepatocyte necrosis score; result = 0
Structure (SMILES) = CC(C)=CCC[C@](C)(O[C@@H]1O[C@H](CO[C@@H]2O[C@H](CO)[C@@H](O)[C@H](O)[C@H]2O)[C@@H](O)[C@H](O)[C@H]1O)[C@H]1CC[C@]2(C)[C@@H]1[C@H](O)C[C@@H]1[C@@]3(C)CC[C@H](O[C@@H]4O[C@H](CO)[C@@H](O)[C@H](O)[C@H]4O[C@@H]4O[C@H](CO)[C@@H](O)[C@H](O)[C@H]4O)C(C)(C)[C@@H]3CC[C@]12C; test system = rat, extracted tissue homogenate QC samples; setting = 1.0 µg/mL, 24 h, 15 °C, autosampler; endpoint = post-preparative stability accuracy; result = 95 ± 8.9%
Structure (SMILES) = CN[C@H](CC(C)C)C(=O)N[C@H]1C(=O)N[C@@H](CC(N)=O)C(=O)N[C@H]2C(=O)N[C@H]3C(=O)N[C@H](C(=O)N[C@H](C(=O)O)c4cc(O)cc(O)c4-c4cc3ccc4O)[C@H](O)c3ccc(c(Cl)c3)Oc3cc2cc(c3O[C@@H]2O[C@H](CO)[C@@H](O)[C@H](O)[C@H]2O[C@H]2C[C@](C)(N)[C@H](O)[C@H](C)O2)Oc2ccc(cc2Cl)[C@H]1O; test = microdialysis; test system = pig, Danish Landrace, cancellous bone; setting = intravenous, 1000 mg over 100 min, 450 min dosing interval, added: 1.0 µg/mL MIC; how to read = reference: dosing interval; endpoint = time above MIC; result = 89%
Structure (SMILES) = CC(=O)O[C@H]1C(=O)[C@@]2(C)[C@H]([C@H](OC(=O)c3ccccc3)[C@]3(O)C[C@H](OC(=O)[C@H](O)[C@@H](NC(=O)c4ccccc4)c4ccccc4)C(C)=C1C3(C)C)[C@]1(OC(C)=O)CO[C@@H]1C[C@@H]2O; test system = phosphate buffered saline; setting = 24 h, pH 7.4, 1% DMSO; endpoint = kinetic solubility; result = 1 µM (≈ 0.854 µg/mL)
Structure (SMILES) = C[C@](N)(Cc1ccc(O)c(O)c1)C(=O)O; test = static gravimetric method; test system = supercritical CO2, 740.3 kg/m3; setting = 5 h, 333 K, pressure 21 MPa; endpoint = solubility; result = 250 µg/mL (≈ 1190 µM)
Structure (SMILES) = CC(=O)N[C@@H](CCCCN)C(=O)N[C@@H](CCCCN)C(=O)N[C@@H](CCCNC(=N)N)C(=O)N[C@@H](Cc1ccc(O)cc1)C(=O)N[C@@H](CO)C(=O)N[C@@H](CCCNC(=N)N)C(=O)N[C@@]1(C)CCCC=CCCC[C@@](C)(C(=O)N[C@@H](CC(C)C)C(N)=O)NC(=O)[C@H](CC(C)C)NC(=O)[C@H](CC(C)C)NC(=O)[C@H](CCC(N)=O)NC1=O; test = CD spectroscopy; test system = sodium phosphate buffer; setting = 25 to 100 µM, pH 7.4, 25 °C; endpoint = helicity; result = 38%
Structure (SMILES) = CCc1ccc(Cc2ccc3c(c2)[C@]2(OC3)O[C@H](CO)[C@@H](O)[C@H](O)[C@H]2O)cc1; test system = Wistar rat, male, kidney; setting = oral, dose not given, 24 h; how to read = reference: kidney over plasma concentration; endpoint = tissue/plasma ratio; result = 201 ± 42.9
Structure (SMILES) = COC(=O)N[C@H](C(=O)N[C@@H](Cc1ccccc1)[C@@H](O)CN(Cc1ccc(-c2ccccn2)cc1)NC(=O)[C@@H](NC(=O)OC)C(C)(C)C)C(C)(C)C; test = population PK model; test system = pregnant women, second trimester; setting = oral, median, added: with tenofovir; endpoint = Vd/F; result = 133 L
Structure (SMILES) = COc1cc(OC)c(/C=C/S(=O)(=O)Cc2ccc(OC)c(NCC(=O)O)c2)c(OC)c1; test system = cancer patients, phase I, plasma; setting = oral, 140 mg twice daily, day 1 cycle 1; endpoint = Vss/F; result = 1100 ± 424 L
Structure (SMILES) = NCCCC[C@@H]1NC(=O)[C@@H](Cc2c[nH]c3ccccc23)NC(=O)[C@H](c2ccccc2)NC(=O)[C@@H]2C[C@@H](OC(=O)NCCN)CN2C(=O)[C@H](Cc2ccccc2)NC(=O)[C@H](Cc2ccc(OCc3ccccc3)cc2)NC1=O; test = radioimmunoassay; test system = healthy human male volunteers, plasma; setting = subcutaneous, 600 µg; endpoint = beta half-life; result = 9.1 ± 5.2 h
Structure (SMILES) = COc1cc(/C=C/C(=O)CC(=O)/C=C/c2ccc(O)c(OC)c2)ccc1O; test = I-125 label; test system = C57BL/6J mouse, hippocampus; setting = intranasal vs intraperitoneal, 10 µg/mouse IN, 100 µg/mouse IP, 8 h; how to read = reference: intranasal over intraperitoneal; endpoint = brain uptake ratio; result = 6.78
Structure (SMILES) = CC(=O)N[C@H](CCNC(=O)c1cc(NC(=O)c2cc(NC(=O)c3cc(NC(=O)c4nccn4C)cn3C)cn2C)cn1C)C(=O)Nc1cn(C)c(C(=O)Nc2cc(C(=O)Nc3cc(C(=O)Nc4cc(C(=O)NCCCN(C)CCCN[14C](=O)c5cccc([14C](=O)O)c5)n(C)c4)n(C)c3)n(C)c2)n1; test system = NSG mouse, male, LNCaP xenograft, liver; setting = intraperitoneal, 20 nmol/animal, 7 days; endpoint = tissue concentration; result = 0.27 mg/kg
Structure (SMILES) = COc1cccc(N2CCN(C3=Nc4c(F)cccc4[C@H](CC(=O)O)N3c3cc(C(F)(F)F)ccc3OC)CC2)c1; test system = healthy women, plasma; setting = intravenous infusion, 240 mg, day 1, single dose, 30-min infusion; endpoint = terminal elimination rate constant; result = 1.3e-05 ± 4.9e-06 s⁻¹
Structure (SMILES) = C[N+](C)(C)CCc1ccc(Oc2ccc(-c3noc(-c4ccc(O)cc4)n3)cc2)cc1.[I-]; test system = male Sprague Dawley rats; setting = oral, 30 mg/kg, 0 to 48 h; how to read = reference: dose; endpoint = unchanged drug in faeces; result = 1.5%
Structure (SMILES) = CC(=O)O[C@@]12CO[C@@H]1C[C@H](O)[C@@]1(C)C(=O)[C@H](O)C3=C(C)[C@@H](OC(=O)[C@H](O)[C@@H](NC(=O)OC(C)(C)C)c4ccccc4)C[C@@](O)([C@@H](OC(=O)c4ccccc4)[C@H]21)C3(C)C; test system = male Sprague-Dawley rat, plasma; setting = intravenous, 10 mg/kg; endpoint = AUC(0-inf); result = 2640 ng·h/mL
Structure (SMILES) = CC(C)=CCC[C@](C)(O[C@@H]1O[C@H](CO)[C@@H](O)[C@H](O)[C@H]1O)[C@H]1CC[C@]2(C)[C@@H]1[C@H](O)C[C@@H]1[C@@]3(C)CC[C@H](O[C@@H]4O[C@H](CO)[C@@H](O)[C@H](O)[C@H]4O[C@@H]4O[C@H](CO)[C@@H](O)[C@H](O)[C@H]4O)C(C)(C)[C@@H]3CC[C@]12C; test system = rat, extracted tissue homogenate QC samples; setting = 0.2 µg/mL, 24 h, 15 °C, autosampler; endpoint = post-preparative stability accuracy; result = 103 ± 8.5%
Structure (SMILES) = Cn1c(-c2ccc(C(N)=O)cc2F)nnc1C(C)(C)Oc1c(F)cc(Cl)cc1F; test system = healthy young Japanese subjects, plasma; setting = oral, 50 mg once daily, day 18, 14 days dosing; endpoint = Cmax median; result = 856 ng/mL

Excerpt of the above:
Structure (SMILES) = CCCC[C@@H]1NC(=O)[C@@H](NC(=O)[C@H](CCC(=O)O)NC(=O)CNC(=O)CN2CCN(CC(=O)O)CCN(CC(=O)O)CCN(CC(=O)O)CC2)CCCCNC(=O)C[C@@H](C(N)=O)NC(=O)[C@H](C(C)C)NC(=O)[C@@H]2CCCN2C(=O)[C@H](CCCNC(=N)N)NC(=O)CNC(=O)[C@H](Cc2c[nH]c3ccccc23)NC(=O)[C@H](CCCNC(=N)N)NC(=O)[C@@H](Cc2ccccc2)NC(=O)[C@H](Cc2c[nH]cn2)NC(=O)[C@H](CCC(=O)O)NC1=O [indium-111 labelled]; test system = normal C57 mice, bone; setting = intravenous, 0.037 MBq, 2 h; endpoint = tissue uptake; result = 0.03 ± 0.01 %ID/g
Structure (SMILES) = [2H]C([2H])([2H])Oc1cc2c(cc1OC([2H])([2H])[2H])C1CC(=O)C(CC(C)C)CN1CC2 (stereo not shown); test = item: deuterated total (α+β)-HTBZ; test system = healthy human volunteers, plasma; setting = oral, 24 mg single dose, standard meal; endpoint = dose-normalized AUC(0-t); result = 22.3 ng·h/mL
